# Assay results from different studies.
# Lines come from different studies, so protocols differ.
# B1: enzyme (Bacteroides fragilis, UniProt Q5LAA3); chain MAMLEKIQETAAFLKGKMHTSPETAIILGTGLGSLANEITEKYEIKYEDIPNFPVSTVEGHSGKLIFGKLGNKEIMAMQGRFHYYEGYSMKEVTFPVRVMRELGIKTLFVSNASGGTNPEFEIGDLMIITDHINYFPEHPLRGKNIPYGPRFPDMSEAYDKELIRKADAIAAEKGIKVQHGIYIGTQGPTFETPAEYKLFHILGADAVGMSTVPEVIVANHCGIKVFGISVVTDLGVEGKIVEVSHEEVQKAADAAQPKMTTIMRELINRA
# B2: enzyme (Pseudomonas poae, UniProt A0A2S9EJ63); chain MSTQHYDYIIVGGGSAGSVLANRLSAQADKRVLLIEAGADTPEHDTPTDILDGLQPWLPRLAGERYFWPGLNILRASEHGDIPREPQLYEQARILGGGSSVNMMVANRGLPRDYDEWARLGADGWDWQGVLPYFRKLERDLDFGHSHPEQHGQDGPIPIARVDSRHWGSFTRASAQALHTQGLNDIVDQNGRFEDGYFAPAVAIEHDQRVSSARAYLNAAVRARPNLSVWADTTVRQLTVKGQRVTGVQAVRDGRTVELAGDEVILAAGALQSPAFLLRAGIGPADQLRDLGIEVIADRPGVGRNLWDHSSIGLSASLHHPQVPSDEPGAAHLLAARVSSGVEPSVPGDLYLGIAPNAALGLASAVLWVNKPSSSGHLRLRSKDPADYPAVEFNLLSDRRDLERLRQGLRLLARVFAHPAVAAFSGPPRLSRFAQASNEGPLLSELLANDAQLERYLRTHVGGVWHASGTCRIGRADDPQAVVDHAGRVHGVQGLRVADASVFPSIPTANTNLPTLMIAEKIAEAILANA
# B3: aspC A106G/A17N/A218G/A278L/A281T/A8Q/D18E/F210I/F212I/F350Y/G15S/G249S/I187A/I279A/I29V/I33V/I341V/I5L/I68L/I71L/L46M/M321L/M380L/N285S/N30D/N64T/S129T/S135A/S273G/S351L/T100S/V125I/V136I/V375I/Y244C (Escherichia coli, UniProt P00509); chain MFENLTAQPADPILSLNELFRADERPGKVDLGVGVYKDETGKTPVMTSVKKAEQYLLENETTKTYLGLDGLPEFGRCTQELLFGKGSALINDKRARTAQSPGGTGGLRVAADFLAKNTSVKRVWISNPTWPNHKAIFNSAGLEVREYAYYDAENHTLDFDALINSLNEAQAGDVVLFHGCCHNPTGADPTLEQWQTLAQLSVEKGWLPLIDIAYQGFGRGLEEDAEGLRAFAAMHKELIVASSCSKNFSLYNERVGACTLVAADSETVDRAFGQMKALARTNYSSPPAHGASVVATILSNDALRAIWEQELTDMRQRIQRLRQLFVNTLQEKGANRDFSFVIKQNGMFSYLGLTKEQVLRLREEFGVYAVASGRINVAGLTPDNMAPLCEAIVAVL
# B4: enzyme (Acinetobacter baumannii, UniProt A0A5P1UDB1); chain MFIEQDIQLGYVPFPKSRAQQYRDEGCWKSQTHFQLLASLKDRFAQRVAVIQDDKQLTYQQLYDYAIHYGTYLKQQGIRETDFVLLQSPNVIEVFIVIFGLYAIGARPVFCLHGHGSYEIENIARQSRAVGFLKLCGSANESTATDVCEEFSKPNFKLWFRESIVSRSSIEASLPQLQGVAPAFNLRAQSESEDIAFLQLSGGTTGLPKLIPRTHADYIYSIEKSVDVAGLTQDTKQLVVLPVMHNFCMSSPGFLGVFYVGGTVVLSQLTHPRVCFELIEKYQIQQVSLVPAIATLWLNAESLKDYDLSSLQVVQVGGAKLLPSLAEQIIDTLQVKLQQVYGMAEGLVNFTHLDDSDQITIQTQGKKLSHLDEIRIADQDGNALPINAIGHIQTRGPYTINGYYNLPEINQRAFTQDGFYKTGDIGYLDENLNIVVTGREKEQINRSGEKITPSEIEEFILQYPSVKDVCVIGVSDDYLGERIKAIIIPKLDDSEINLKNIRKFLISKNIAHFKIPDEIEVVADFKYTHVGKVNRQKLG
# B5: enzyme (Populus trichocarpa, UniProt A0A2K1ZZ60); chain ITRQYTFNITHKNFTRLCHTRSLVTVNGQFPGPRLVAREGDQVLVKVVNHVAENITIHWHGVRQLTSGWADGPAYVTQCPIQTGQAYTYNFTITGQRGTLLWHAHISWLRSSLYGPIIILPKLNESYPFKKPYKEIPILFGEWFNVDPEAVIAQALQTGAGPNVSDAYTINGLPGPLYNCSAKDTYKLKVKPGKTYLLRLINAALNDELFFSIANHTLTVVEADAVYVKPFEADTLLISPGQTTNVLLKTKPHLPNATFYMFAGPYFSGMGSFDNSTTAGVLVYKHPSSNNHLKKLPTLKPTLPPINATGFVANFTKKFRSLANAKFPANVPQTVDRKFFFTVGLGTNPCPKNTTCQGPNNNTKFAASINNVSFVLPSVALLQSYFFGQSNGVFTSDFPQNPTIPFNYTGTPPNNTMVSNGTKAVVLTFNTSVELVMQGTSIVAAESHPLHLHGFNFFVVGQGFGNYDPNKDPSNFNLVDPMERNTAGVPAGGWIAIRFLADNPGVWFMHCHLDVHTSWGLRMAWIVLDGPQPNQKIPPPPSDLPKC
# B6: enzyme C33S (UniProt A0A0P0CH59); chain MRIALFSDIHANLPALEAVLANMETQQLDAIYSLGDLVGYAPWPNEVVAEIRKRRIPTIAGNYDEGVGLWSPNCGCAYKTDTEKDLGQQSIDFTNNVVTEETRKYLRMLPRQLRLTFMDGSKEENKIELLLVHGSPRKINEYLFEDRPEKSFLKMMEEANADLLFFGHTHKPYHRAMPYEHEGQTRYRHAINIGSVGKPKDGDPRTGYVVVELTPESSLTQKDSIKVEFIRVPYDVETAAQAVEASPLPNEFAQMLRTA
Molecule,target or system,assay,system,conditions,how to read,measurement,result
HNL E79H/K236M/T11G (Hevea brasiliensis),CC(=O)Oc1ccc([N+](=O)[O-])cc1,steady-state kinetics,,"pH 7.2, 22 °C",,Km,710 µM
"enzyme (Sulfolobus acidocaldarius, UniProt Q4J7B6)",Nc1ncnc2c1ncn2[C@@H]1O[C@H](COP(=O)(O)OP(=O)(O)OP(=O)(O)O)[C@@H](O)[C@H]1O,steady-state kinetics,,"pH 7.4, 70 °C",,Km,1220 µM
B1 (enzyme),OC[C@H]1O[C@@H](n2cnc3c(O)ncnc32)[C@H](O)[C@@H]1O,steady-state kinetics,,,,Km,521 µM
"enzyme F30A (Homo sapiens, UniProt Q08623)",O=c1[nH]cc([C@@H]2O[C@H](COP(=O)(O)O)[C@@H](O)[C@H]2O)c(=O)[nH]1,steady-state kinetics,,"pH 7, 25 °C",,Km,11 µM
GSGAGSETVV,human MAGI1-3/6 PDZ construct (MBP fusion),automated holdup,"peptide, purified PDZ protein","concentration not given, unit not given","baseline: biotin control resin, higher = stronger binding",binding intensity,0.0513
B2 (enzyme),O=Cc1ccc(C=O)o1,steady-state kinetics,,"pH 8, 30 °C, added: 2 µM FAD",,Km,2500 µM
GSGAGQITKV,human MAGI1-2/6 PDZ construct (MBP fusion),automated holdup,"peptide, crude extract","concentration not given, corrected by standard peak, unit not given","baseline: biotin control resin, higher = stronger binding",binding intensity,0.189
B3,N[C@@H](Cc1ccc(O)cc1)C(=O)O,steady-state kinetics,,"pH 7.5, 25 °C, added: PMP 20 µM",,Km,700 µM
B4 (enzyme),O=C(O)c1ccc(F)cc1O,steady-state kinetics,,"pH 7.5, 37 °C, apparent",,Km,133 µM
acsA D449E (Pseudomonas chlororaphis),O=C(O)CCC(F)(F)F,steady-state kinetics,,pH 7,,Km,460 µM
B5 (enzyme),COc1cc(/C=C/CO)cc(OC)c1O,steady-state kinetics,,27 °C,,Km,143 µM
B6 (enzyme C33S),O=[N+]([O-])c1ccc(OP(=O)(O)O)cc1,steady-state kinetics,,"pH 7, 37 °C, added: Ni2+ 0.25 mM",,Km,13700 µM

# Repeated from above:
Molecule,target or system,assay,system,conditions,how to read,measurement,result
B4 (enzyme),O=C(O)c1ccc(F)cc1O,steady-state kinetics,,"pH 7.5, 37 °C, apparent",,Km,133 µM
GSGAGQITKV,human MAGI1-2/6 PDZ construct (MBP fusion),automated holdup,"peptide, crude extract","concentration not given, corrected by standard peak, unit not given","baseline: biotin control resin, higher = stronger binding",binding intensity,0.189
